Measurements of several laboratories.
Numbered parts are unrelated; each lists some results of a single study. Positions count from the first letter of the parent shown.

Study 1
Target: Protein max, full length (MAX, Homo sapiens, UniProt P61244-2, residues 1-151)
Method: protein-binding microarray
Form: double-stranded DNA, one strand shown
Medium: in vitro
Tested at: not given
Notes: k-mer, scored over probes, only values ≥0.25
Direction: higher = stronger binding
Oligonucleotide	E-score
CACGCTGG	0.449
CGTGACCA	0.41
ATGCACGC	0.42
CGTGTCGA	0.29
ACTCGTGG	0.396
AGTCACGC	0.436
CGTGCCAG	0.269
CATGATAC	0.284
ACACGGGA	0.325
GCTGAGCA	0.278
GGCATGGA	0.311
ATGCTGCA	0.315
GCGTGGGA	0.441
CATGACCA	0.332

Study 2
Target: Sal-like protein 4, full length isoform B (SALL4, Homo sapiens, UniProt Q9UJQ4-2, residues 1-616)
Method: universal PBM
Form: double-stranded DNA, one strand shown
Medium: in vitro
Tested at: not given
Notes: 8-mer, flanks averaged, mean of replicates
Direction: higher = stronger binding
Target sequence (chain): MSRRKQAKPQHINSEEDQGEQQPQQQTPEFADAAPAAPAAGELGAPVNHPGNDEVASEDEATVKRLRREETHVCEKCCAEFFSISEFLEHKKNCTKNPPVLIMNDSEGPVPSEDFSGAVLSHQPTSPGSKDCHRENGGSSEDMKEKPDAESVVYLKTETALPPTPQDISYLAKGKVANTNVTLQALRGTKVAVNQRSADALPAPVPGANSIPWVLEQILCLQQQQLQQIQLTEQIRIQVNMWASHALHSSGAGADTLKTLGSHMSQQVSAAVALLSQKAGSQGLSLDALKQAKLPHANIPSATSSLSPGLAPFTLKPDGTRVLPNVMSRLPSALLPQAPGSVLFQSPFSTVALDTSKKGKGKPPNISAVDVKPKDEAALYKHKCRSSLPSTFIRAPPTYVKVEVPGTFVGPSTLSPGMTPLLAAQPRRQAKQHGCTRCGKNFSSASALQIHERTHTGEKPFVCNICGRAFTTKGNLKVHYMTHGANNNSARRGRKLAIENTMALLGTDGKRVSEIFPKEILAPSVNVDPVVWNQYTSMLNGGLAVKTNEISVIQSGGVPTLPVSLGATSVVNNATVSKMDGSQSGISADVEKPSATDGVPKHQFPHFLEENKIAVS
Oligonucleotide	E-score
AACCGCTA	-0.0255
ACTATTAT	0.351
GCAATACA	0.146
CAAAGCAA	0.0875
AATTCCAA	0.242
CGGATTGC	-0.112
ACTTTTAT	0.285
GTGCATTA	0.23
GTCTTAAA	0.00531
AGAGTTCC	-0.295
ATGCGTGC	0.0719
CATTCTTA	0.16
CAGTATTA	0.155

Study 3
Target: Prothrombin, mature alpha-thrombin (F2, Homo sapiens, UniProt P00734)
Method: aptamer microarray, sandwich
Form: DNA with 2'F-ANA
Medium: in vitro
Tested at: 200 nM
Notes: whole 15-mer aptamer, many near background
With: Cy3 exosite-II aptamer, 400 nM
Direction: higher = stronger binding
Oligonucleotide: GGTTGGTGTGGTTGG
Modification	mean fluorescence intensity [a.u.]
2'F-ANA at 1 3 4 6 8 9 10 13 14 15	53.5
2'F-ANA at 6 8 10 11 14	98.3
2'F-ANA at 1 3 10 14 15	58.4
2'F-ANA at 1 2 5 6 7 10 11	47.3
2'F-ANA at 1 3 4 5 7 14 15	45.1
2'F-ANA at 2 4 5 6 7 8 10 11 13 14 15	49.9
2'F-ANA at 1 7 8 10 11 12 14	51.7
2'F-ANA at 1 2 3 5 9 10 15	43.9
2'F-ANA at 2 3 5 6 7 8 10 11 12 13 14 15	53.3
2'F-ANA at 1 2 4 5 8 9 10 12	48.6
2'F-ANA at 1 2 11 12 14	90.2
2'F-ANA at 3 6 7 10 11 13 14	456

Study 4
Target: Interferon regulatory factor 3, full length, phosphomimetic (IRF3, Homo sapiens, UniProt Q14653, residues 1-427, S386D/S396D/S398D/S402D/T404D/S405D)
Method: protein-binding microarray
Form: double-stranded DNA, one strand shown
Medium: in vitro
Tested at: 2540 nM top
Notes: 60-bp whole probe
With: salmon DNA 0.4 mg/ml
Relative to: random background probes
Direction: higher = stronger binding
Constant ends, left off below: GCCTAGCAC … GTCTTGATTCGCTTGACGCTGCTG
Target sequence (chain): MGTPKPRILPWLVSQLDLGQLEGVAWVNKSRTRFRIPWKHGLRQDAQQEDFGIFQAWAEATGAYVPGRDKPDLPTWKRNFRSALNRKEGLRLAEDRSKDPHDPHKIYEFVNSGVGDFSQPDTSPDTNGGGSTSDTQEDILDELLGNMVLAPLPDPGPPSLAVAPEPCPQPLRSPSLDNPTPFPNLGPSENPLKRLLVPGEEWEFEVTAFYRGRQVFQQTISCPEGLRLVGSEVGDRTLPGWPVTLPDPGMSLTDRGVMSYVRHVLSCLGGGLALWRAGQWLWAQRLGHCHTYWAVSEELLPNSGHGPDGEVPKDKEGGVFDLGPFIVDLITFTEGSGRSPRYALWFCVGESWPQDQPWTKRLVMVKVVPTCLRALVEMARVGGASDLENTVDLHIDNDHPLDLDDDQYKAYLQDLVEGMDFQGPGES
Oligonucleotide	fitted relative affinity
TTAGAACCGGGGACTGGATTAGTGCTA	-0.722 z-score
TTAGGTTTCGACTTTCAGTTAGTGCTA	3.61 z-score
AAATGTTTTGTTTTTCATTAGTGCTAG	3.24 z-score
CTCCTCTCTGGGTCAAAGGTGTGCTAG	0.566 z-score
TTAGGTCTCCTTTTCATTTAGTGCTAG	4.86 z-score
TTACATATCAGTTTCGATTAGTGCTAG	5.02 z-score
TCAGGTATCGGGTTTCGGTTAGTGCTA	4.17 z-score
GACGGCCTGGGTATCGGGACGTGCTAG	-0.633 z-score
ATAGGTCTCCTTATCCTTTAGTGCTAG	2.86 z-score
GACGGTATCGGTACCGGGACGTGCTAG	3.42 z-score
TCAAATATTTACCTCTCACTGTGCTAG	0.218 z-score
TTAGATATCAGACTGGATTAGTGCTAG	0.291 z-score
GACGATATGGGGACTGGAGACGTGCTA	-0.645 z-score
GACGGACTGCTTTTCTTGACGTGCTAG	0.0338 z-score

Study 5
Target: RING finger protein unkempt homolog, zinc fingers 1-6, SBP tag (UNK, Homo sapiens, UniProt Q9C0B0, residues 30-357)
Chain of UniProt Q9C0B0 (30-357, looked up): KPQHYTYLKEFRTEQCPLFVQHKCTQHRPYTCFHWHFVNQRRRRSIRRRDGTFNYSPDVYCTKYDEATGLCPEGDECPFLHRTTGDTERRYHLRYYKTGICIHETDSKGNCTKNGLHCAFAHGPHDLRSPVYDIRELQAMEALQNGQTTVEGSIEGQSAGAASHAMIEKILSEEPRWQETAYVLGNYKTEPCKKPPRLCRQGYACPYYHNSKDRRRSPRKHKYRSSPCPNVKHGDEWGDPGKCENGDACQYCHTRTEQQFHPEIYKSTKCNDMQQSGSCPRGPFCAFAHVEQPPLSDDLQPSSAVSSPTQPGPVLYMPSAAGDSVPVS
Method: RNA Bind-n-Seq
Form: RNA
Medium: in vitro
Tested at: 100 nM
Notes: RNA with constant flanks, vertebrate orthologous sites, ends assumed
Relative to: input RNA pool
Direction: higher = stronger binding
Oligonucleotide	bound/input enrichment
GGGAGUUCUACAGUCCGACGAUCGAAGUUCCCCAUUGUCACUGAGAACCACCAAAUUUGACUUUCACAUUUGGUCUCAGAAUUUAGGUUCCUGCCCUGUUGUUUUUCUUUCUUUUUCUUAAAACAAACAGUUUUCAGAAGUUCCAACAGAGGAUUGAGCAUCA	0.262 ratio
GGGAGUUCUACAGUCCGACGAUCUUUUAUGGAUCAGGUUUGUAAAUGUGUACUAAAAAAAUCAGAGUUUAUUUAUAAGUGGAGGAGUUUAUUUAAAAAGGUCACUGAUAUCAUGGUAUGCAUUAAUUCCAUUUGUUCCUAUUGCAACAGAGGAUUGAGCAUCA	0.667 ratio
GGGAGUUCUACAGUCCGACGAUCCUGUUCUAGGCAAGAUGAUUCAGAAAAUAGAAGUACCAGCUCUUGGAUAUCCUCUUCAUUCAGAAACAGGUGUACACCUCUGUUUUCUAGGAGAAGAAGAGAAGGAAGGGAUGAAUCUGUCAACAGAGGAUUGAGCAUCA	0.364 ratio
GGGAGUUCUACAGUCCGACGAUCAGUUUGUAUGCACAUUAUUCACAUUCCUCUGUUGUGUUUGCAAAAAAAUAAGAAGACAUUUUAGUCUUUUCUAAGGAUUUUCAAUCCAAUUUCUCAUUUGGUUGCAUGAAGUUGCCCUUACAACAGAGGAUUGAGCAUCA	0.413 ratio
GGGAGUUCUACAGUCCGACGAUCUACAAAUGUGUAUCGAAUGCUGGGUGUAACAUUAAACCAUCAUUUAGAAUAGAUGUCGAUUUGUUAUAAUUAAGCUACAAAUAGGUUUCUUUAAACCAGAGAUGCACUGCCCUUGUCUCACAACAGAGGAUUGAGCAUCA	0.422 ratio
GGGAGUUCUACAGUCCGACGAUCAAAGGAAUAAUCCUGGCUGCUUUUUGCGAGGUAAAGUGUCCCUUGGCAUGUGGUUGAUACCAGCAGCAUCAUCCCUAAUAAGUCAGUGUUUCACUUCUUCCACACGUAGUCCUCUUCAAACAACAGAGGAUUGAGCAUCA	0.303 ratio
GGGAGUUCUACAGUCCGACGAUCAUUGUAUGUAGAGAAAAAAUUUUCACUAACUACCAUUGUGGAAUUCCCUAGCAAUUUAUUUAGACUUAAUUUUUAAAAUUCAAGCUUACUGUAUUAGGCAUUUUUAGCUCAUAAUUAAAACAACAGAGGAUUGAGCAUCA	11.7 ratio
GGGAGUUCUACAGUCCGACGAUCGUUAGGUCAUGACCCAUAUAGGUUAGGUCAUGAUGCUUAUAGAUUAGGACAGGACCCUUACAGAUUAGGUCAUGAUCCCUACAGACUAACUCCUGAUCCCUAUAGGAUGUCACCUAGACCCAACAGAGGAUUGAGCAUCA	0.294 ratio
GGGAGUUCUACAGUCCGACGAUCCUUCCUUCCUUUUCCUUUUUUUCUUUUUUCUUCUCUUUUCUUUCUUUUUUUUUUUUUUGGUAGUUGUUGUUACCCACGCCAUUUUACGUCUCCUUCACUGAAGGGCUAGAGUUUUAACUUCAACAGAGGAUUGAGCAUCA	1.75 ratio
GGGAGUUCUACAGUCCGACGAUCGUUAGGUCAUGACCCUUACAGGCUAGGUCAUGAUGCCUACAGGUUAGGACAGGACCCUUACAGAUUAGGCCAUGAUCCCUACAGACUAACUCCUGAUCCUUACAGAAUGUCACCUAGGCCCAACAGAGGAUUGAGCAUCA	0.337 ratio

Study 6
Target: Ras GTPase-activating protein-binding protein 1, full length (G3BP1, Homo sapiens, UniProt Q13283)
Chain of UniProt Q13283 (whole entry, looked up): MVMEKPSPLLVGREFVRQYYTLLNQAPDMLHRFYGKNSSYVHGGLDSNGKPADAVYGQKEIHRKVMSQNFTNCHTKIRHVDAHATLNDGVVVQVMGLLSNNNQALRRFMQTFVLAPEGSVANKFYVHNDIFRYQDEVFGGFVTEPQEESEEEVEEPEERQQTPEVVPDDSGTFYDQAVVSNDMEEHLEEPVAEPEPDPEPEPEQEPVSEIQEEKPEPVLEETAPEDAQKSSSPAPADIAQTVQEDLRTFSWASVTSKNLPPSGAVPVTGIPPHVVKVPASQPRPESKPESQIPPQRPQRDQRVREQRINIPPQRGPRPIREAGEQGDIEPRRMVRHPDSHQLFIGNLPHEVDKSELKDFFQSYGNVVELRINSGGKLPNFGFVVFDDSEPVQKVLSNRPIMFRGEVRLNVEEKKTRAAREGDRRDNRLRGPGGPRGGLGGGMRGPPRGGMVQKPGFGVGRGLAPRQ
Method: RNA Bind-n-Seq
Form: RNA
Medium: in vitro
Tested at: 200 nM
Notes: whole 134-nt RNA, ends assumed
With: 150 mM KCl
Relative to: input library
Direction: higher = stronger binding
Oligonucleotide	log2 enrichment
GGGAGUUCUACAGUCCGACGAUCCUCAAGUCCUGUGCUACACAUCGUAUGUACCGAAUCGGCCCGGCCCGGGCCCGGAAAGUAUUAUGUUACGCCGUUCGGAUCUGCACUUCCUGGAAUUCUCGGGUGUCAAGG	-0.929
GGGAGUUCUACAGUCCGACGAUCAGUCCUGUGCUACACAUCGUAUGUACCGAAUCGGUUUGGAAAAAAAGGUUUUUUUGGAAAGUAUUAUGUUACGCCGUUCGGAUCUGCACUUGGAAUUCUCGGGUGUCAAGG	-1.57
GGGAGUUCUACAGUCCGACGAUCCCUCAAGUCCUGUGCUACACAUCGUAUGUACCGAAUCGGUGGUUUUUGGAGGAAAGUAUUAUGUUACGCCGUUCGGAUCUGCACUUCCAGUGGAAUUCUCGGGUGUCAAGG	0.0463
GGGAGUUCUACAGUCCGACGAUCCAAGUCCUGUGCUACACAUCGUAUGUACCGAAUCGGGGCCCGGGGCCCGGCCCGGAAAGUAUUAUGUUACGCCGUUCGGAUCUGCACUUCUGGAAUUCUCGGGUGUCAAGG	-0.59

Study 7
Target: ABI1, truncated, D143A, DHFR fusion (Arabidopsis thaliana, UniProt P49597)
Method: DHFR PCA, dose-response
Medium: yeast
Notes: Hill fit, mean, not affinity
With: (+)-ABA, dose series
Direction: lower = more sensitive
Parent: PYL1, truncated, DHFR fusion (Arabidopsis thaliana, UniProt Q8VZS8); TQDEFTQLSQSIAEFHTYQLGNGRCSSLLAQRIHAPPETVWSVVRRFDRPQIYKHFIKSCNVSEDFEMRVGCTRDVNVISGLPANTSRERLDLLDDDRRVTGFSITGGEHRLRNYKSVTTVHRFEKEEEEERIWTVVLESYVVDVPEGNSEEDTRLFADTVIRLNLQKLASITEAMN
Substitution	ABA EC50 [µM]
D48G	92.2
N177R	2.15
D65K	2.79
A175C	2.25
S59C	5.27
G23C	21
T119K	432
L91Q	615
K168V	7.69
V136M	1.02
E14L	10.3
L94C	29.9
C25L	29.5
S26L	167
L164F	1.51
E4D	1.87
E174C	12.3

Study 8
Target: Histone acetyltransferase KAT6A, winged helix 1, GST fusion (KAT6A, Homo sapiens, UniProt Q92794, residues 1-85)
Method: protein binding microarray
Form: double-stranded DNA, one strand shown
Medium: in vitro
Tested at: not given
Notes: 8-mer, flanks averaged, mean of 2 arrays, mostly near background
Relative to: not given
Direction: higher = stronger binding
Residues (chain): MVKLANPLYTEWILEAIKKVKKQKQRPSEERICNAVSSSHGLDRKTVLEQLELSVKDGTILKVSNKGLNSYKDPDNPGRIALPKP
Oligonucleotide	E-score
ATTAGACA	-0.267
ACAATACG	0.11
CTTAATAC	-0.0724
CTAGTGAC	-0.104
GTAACTGA	-0.1
CTAGAATC	-0.311
ACGGCGAG	0.34
GCAAGGCC	0.179
ATATTTGG	-0.271
ACGAACCT	-0.0832
CTGAACTC	-0.235
GCCAATAA	-0.182
ATACAGCC	0.0159
GAACCACC	-0.109
CATCTAAG	-0.0213
CGACATCC	0.166
AACGGCTC	0.253
ATAGGCAA	-0.183
CGAAGACC	-0.102

Single results of other studies
Sequence	target	test	test system	how to read	endpoint	value
PPVKRRLDLETDH	human cyclin B1	cyclin docking binding, deep mutational scanning	peptide, yeast cyclin B1-Cln2 system	direction not given	score relative, wild type, peptide	0

Repeated from above (study 7):
Substitution	ABA EC50 [µM]
N177R	2.15
D65K	2.79
A175C	2.25
S59C	5.27
G23C	21
T119K	432
L91Q	615
K168V	7.69
V136M	1.02
E14L	10.3
L94C	29.9
C25L	29.5
S26L	167
L164F	1.51
